Measured values collected from several papers.
A part holds a random share of what one study measured.
Chain of UniProt P42336 (whole entry, unmodified, looked up): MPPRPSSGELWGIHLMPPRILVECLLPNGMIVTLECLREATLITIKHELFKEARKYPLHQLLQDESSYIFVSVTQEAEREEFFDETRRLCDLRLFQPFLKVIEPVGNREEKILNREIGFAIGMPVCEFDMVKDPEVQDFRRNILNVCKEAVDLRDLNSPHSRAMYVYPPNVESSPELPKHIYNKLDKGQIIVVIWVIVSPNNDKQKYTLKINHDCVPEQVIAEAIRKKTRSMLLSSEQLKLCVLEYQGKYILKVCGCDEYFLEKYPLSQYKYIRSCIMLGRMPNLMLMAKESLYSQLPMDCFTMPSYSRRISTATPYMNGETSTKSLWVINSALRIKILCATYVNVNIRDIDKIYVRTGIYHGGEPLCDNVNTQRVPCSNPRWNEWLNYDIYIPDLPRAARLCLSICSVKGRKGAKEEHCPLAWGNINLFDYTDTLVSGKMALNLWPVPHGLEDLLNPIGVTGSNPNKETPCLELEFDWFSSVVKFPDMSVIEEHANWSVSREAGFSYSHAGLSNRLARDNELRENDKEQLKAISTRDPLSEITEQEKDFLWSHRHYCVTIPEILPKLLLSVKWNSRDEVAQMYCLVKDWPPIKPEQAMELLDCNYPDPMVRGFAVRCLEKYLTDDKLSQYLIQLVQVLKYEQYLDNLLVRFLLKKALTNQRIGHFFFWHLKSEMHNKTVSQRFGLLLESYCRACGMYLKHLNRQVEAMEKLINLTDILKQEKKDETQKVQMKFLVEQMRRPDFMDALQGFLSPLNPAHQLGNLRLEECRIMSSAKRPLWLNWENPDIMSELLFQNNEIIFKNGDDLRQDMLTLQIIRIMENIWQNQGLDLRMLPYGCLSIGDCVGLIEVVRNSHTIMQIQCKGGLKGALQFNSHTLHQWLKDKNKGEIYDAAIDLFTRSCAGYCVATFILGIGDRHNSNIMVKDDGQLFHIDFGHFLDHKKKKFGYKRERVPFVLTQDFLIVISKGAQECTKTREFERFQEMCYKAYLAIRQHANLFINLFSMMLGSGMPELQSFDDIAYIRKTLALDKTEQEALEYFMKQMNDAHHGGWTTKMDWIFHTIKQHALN
Chain of UniProt Q02750 (whole entry, looked up): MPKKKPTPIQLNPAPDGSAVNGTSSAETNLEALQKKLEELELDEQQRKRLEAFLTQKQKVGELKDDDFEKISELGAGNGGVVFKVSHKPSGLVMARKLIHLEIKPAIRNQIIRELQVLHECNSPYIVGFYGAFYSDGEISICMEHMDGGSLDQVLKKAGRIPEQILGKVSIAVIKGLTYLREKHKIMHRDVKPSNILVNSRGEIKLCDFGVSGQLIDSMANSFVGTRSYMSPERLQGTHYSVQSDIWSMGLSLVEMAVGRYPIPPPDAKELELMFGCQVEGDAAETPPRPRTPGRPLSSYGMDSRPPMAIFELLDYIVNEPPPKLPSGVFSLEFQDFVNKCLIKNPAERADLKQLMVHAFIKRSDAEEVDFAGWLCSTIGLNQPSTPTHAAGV
Chain of UniProt P49840 (whole entry, looked up): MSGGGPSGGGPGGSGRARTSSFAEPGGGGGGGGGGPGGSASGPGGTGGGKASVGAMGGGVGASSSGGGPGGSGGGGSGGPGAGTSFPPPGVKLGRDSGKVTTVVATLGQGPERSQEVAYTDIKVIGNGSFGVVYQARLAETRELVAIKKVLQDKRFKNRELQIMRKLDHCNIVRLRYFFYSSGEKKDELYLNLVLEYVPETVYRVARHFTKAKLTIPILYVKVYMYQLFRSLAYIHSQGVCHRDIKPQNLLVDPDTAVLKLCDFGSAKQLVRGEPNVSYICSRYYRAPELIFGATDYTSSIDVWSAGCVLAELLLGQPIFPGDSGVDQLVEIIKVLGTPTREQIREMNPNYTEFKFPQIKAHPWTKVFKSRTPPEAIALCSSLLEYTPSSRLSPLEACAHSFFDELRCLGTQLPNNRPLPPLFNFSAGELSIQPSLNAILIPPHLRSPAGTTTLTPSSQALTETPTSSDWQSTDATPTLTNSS
Chain of UniProt Q96SB4 (whole entry, looked up): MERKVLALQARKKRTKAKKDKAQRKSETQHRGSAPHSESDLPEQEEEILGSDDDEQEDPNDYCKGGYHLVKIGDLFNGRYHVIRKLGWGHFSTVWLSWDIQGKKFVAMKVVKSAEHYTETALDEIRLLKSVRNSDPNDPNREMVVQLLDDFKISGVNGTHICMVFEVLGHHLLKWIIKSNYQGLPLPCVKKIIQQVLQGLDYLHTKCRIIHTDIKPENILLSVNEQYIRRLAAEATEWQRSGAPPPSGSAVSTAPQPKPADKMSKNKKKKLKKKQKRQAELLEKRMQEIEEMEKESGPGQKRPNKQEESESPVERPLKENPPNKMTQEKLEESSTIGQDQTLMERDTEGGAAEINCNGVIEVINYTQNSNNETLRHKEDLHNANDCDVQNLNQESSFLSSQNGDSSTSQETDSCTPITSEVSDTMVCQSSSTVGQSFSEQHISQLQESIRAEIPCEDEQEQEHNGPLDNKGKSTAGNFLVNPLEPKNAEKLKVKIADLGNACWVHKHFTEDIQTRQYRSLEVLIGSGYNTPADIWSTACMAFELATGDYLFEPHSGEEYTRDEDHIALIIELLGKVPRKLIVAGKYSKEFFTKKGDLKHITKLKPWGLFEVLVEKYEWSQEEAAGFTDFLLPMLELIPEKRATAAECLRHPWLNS
Chain of UniProt Q9Y2K2 (whole entry, looked up): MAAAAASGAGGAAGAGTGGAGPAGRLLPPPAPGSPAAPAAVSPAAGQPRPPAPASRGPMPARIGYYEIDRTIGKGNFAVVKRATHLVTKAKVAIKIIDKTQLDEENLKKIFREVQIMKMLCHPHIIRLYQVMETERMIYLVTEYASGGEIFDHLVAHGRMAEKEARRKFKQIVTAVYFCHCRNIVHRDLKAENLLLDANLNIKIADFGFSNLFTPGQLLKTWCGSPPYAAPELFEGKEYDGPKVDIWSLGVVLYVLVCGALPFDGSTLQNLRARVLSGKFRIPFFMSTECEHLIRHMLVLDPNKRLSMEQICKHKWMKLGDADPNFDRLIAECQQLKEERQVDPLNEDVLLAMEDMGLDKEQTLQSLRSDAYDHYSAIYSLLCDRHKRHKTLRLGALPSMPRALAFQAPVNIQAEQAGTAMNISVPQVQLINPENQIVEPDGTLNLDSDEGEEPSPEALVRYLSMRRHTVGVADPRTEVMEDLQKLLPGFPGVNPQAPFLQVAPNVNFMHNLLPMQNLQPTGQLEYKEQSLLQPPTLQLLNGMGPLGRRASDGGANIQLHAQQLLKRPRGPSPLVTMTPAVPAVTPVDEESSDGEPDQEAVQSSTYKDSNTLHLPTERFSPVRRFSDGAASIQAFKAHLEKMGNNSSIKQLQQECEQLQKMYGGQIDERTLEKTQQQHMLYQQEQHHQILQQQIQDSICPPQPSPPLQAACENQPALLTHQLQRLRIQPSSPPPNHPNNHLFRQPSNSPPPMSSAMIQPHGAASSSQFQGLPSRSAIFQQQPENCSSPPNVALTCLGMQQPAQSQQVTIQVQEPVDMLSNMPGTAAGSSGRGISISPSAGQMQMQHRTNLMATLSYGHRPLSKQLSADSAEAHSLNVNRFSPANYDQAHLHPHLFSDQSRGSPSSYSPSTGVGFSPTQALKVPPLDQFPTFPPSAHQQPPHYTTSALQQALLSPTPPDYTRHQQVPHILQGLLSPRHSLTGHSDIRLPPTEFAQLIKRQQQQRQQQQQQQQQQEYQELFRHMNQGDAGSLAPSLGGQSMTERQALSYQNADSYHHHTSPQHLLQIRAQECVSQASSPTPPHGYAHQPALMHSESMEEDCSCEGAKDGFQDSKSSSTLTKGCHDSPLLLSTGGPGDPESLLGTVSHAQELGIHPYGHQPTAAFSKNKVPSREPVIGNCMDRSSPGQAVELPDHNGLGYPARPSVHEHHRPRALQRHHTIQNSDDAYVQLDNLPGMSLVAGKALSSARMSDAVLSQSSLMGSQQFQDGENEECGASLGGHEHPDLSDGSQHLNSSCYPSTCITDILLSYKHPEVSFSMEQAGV
Chain of UniProt Q8TD08 (whole entry, looked up): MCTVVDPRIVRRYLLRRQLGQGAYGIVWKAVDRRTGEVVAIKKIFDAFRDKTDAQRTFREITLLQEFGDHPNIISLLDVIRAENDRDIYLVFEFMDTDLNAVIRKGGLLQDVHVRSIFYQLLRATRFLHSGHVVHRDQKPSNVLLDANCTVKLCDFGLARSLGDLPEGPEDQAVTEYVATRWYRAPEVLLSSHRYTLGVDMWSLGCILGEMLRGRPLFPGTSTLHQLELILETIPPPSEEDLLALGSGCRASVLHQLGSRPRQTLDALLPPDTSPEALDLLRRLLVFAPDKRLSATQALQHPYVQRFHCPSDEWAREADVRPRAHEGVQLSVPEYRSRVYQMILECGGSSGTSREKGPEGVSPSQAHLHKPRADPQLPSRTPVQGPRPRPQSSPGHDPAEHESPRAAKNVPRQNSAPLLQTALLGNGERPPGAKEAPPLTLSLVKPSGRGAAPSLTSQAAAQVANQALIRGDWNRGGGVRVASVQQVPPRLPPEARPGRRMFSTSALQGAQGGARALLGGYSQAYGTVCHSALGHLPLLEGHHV

Block 1
SMILES: CC(C)S(=O)(=O)c1ccc2nccc(Nc3ccc4sc(C5CCCC5)nc4c3)c2c1.Cl
Observed: kinase activity
Mode: inhibitor
Tested at: 1 µM
Endpoint: remaining activity
target = BDNF/NT-3 growth factors receptor (NTRK2, Homo sapiens, UniProt Q16620); value = 98%
target = Serine/threonine-protein kinase DCLK1 (DCLK1, Homo sapiens, UniProt O15075); value = 97%
target = SRSF protein kinase 1 (SRPK1, Homo sapiens, UniProt Q96SB4); value = 99%
target = Serine/threonine-protein kinase ULK1 (ULK1, Homo sapiens, UniProt O75385); value = 94%
target = Serine/threonine-protein kinase TAO2 (TAOK2, Homo sapiens, UniProt Q9UL54); value = 95%
target = Tyrosine-protein kinase ABL2 (ABL2, Homo sapiens, UniProt P42684); value = 86%
target = Mitogen-activated protein kinase 8 (MAPK8, Homo sapiens, UniProt P45983); value = 100%
target = Rhodopsin kinase GRK7 (GRK7, Homo sapiens, UniProt Q8WTQ7); value = 99%
target = Myosin-IIIb (MYO3B, Homo sapiens, UniProt Q8WXR4); value = 98%
target = [Pyruvate dehydrogenase (acetyl-transferring)] kinase isozyme 4, mitochondrial (PDK4, Homo sapiens, UniProt Q16654); value = 100%
target = Inhibitor of nuclear factor kappa-B kinase subunit beta (IKBKB, Homo sapiens, UniProt O14920); value = 116%

Block 2
Compound: Cc1nc(N2CC[C@@H](O)C2)ncc1-c1cc(C(F)(F)F)cc2[nH]ncc12
Technique: competition with immobilised ligand
Tested at: 1 µM
Endpoint: remaining binding
target = Mitogen-activated protein kinase 15 (MAPK15, Homo sapiens, UniProt Q8TD08); observed = binding; value = 86%
target = Ephrin type-B receptor 3 (EPHB3, Homo sapiens, UniProt P54753); observed = cell-free assay; value = 100%
target = Tyrosine-protein kinase ABL1, phosphorylated (ABL1, Homo sapiens, UniProt P00519, Y253F); observed = binding; value = 70%
target = Ephrin type-A receptor 2 (EPHA2, Homo sapiens, UniProt P29317); observed = cell-free assay; value = 100%
target = Phosphatidylinositol 4,5-bisphosphate 3-kinase catalytic subunit alpha isoform (PIK3CA, Homo sapiens, UniProt P42336, E545K); observed = cell-free assay; value = 56%
target = Interleukin-1 receptor-associated kinase 3 (IRAK3, Homo sapiens, UniProt Q9Y616); observed = binding; value = 85%
target = cAMP-dependent protein kinase catalytic subunit alpha (PRKACA, Homo sapiens, UniProt P17612); observed = cell-free assay; value = 83%
target = Tyrosine-protein kinase ABL1, non-phosphorylated (ABL1, Homo sapiens, UniProt P00519); observed = binding; value = 83%
target = Phosphatidylinositol 4,5-bisphosphate 3-kinase catalytic subunit alpha isoform (PIK3CA, Homo sapiens, UniProt P42336, E545A); observed = cell-free assay; value = 97%
target = Serine/threonine-protein kinase PLK4 (PLK4, Homo sapiens, UniProt O00444); observed = binding; value = 93%
target = Dual specificity mitogen-activated protein kinase kinase 1 (MAP2K1, Homo sapiens, UniProt Q02750); observed = binding; value = 83%
target = Ribosomal protein S6 kinase alpha-3 (RPS6KA3, Homo sapiens, UniProt P51812); observed = binding; value = 48%
target = Calcium/calmodulin-dependent protein kinase type 1B (PNCK, Homo sapiens, UniProt Q6P2M8); observed = cell-free assay; value = 90%
target = Serine/threonine-protein kinase PRP4 homolog (PRPF4B, Homo sapiens, UniProt Q13523); observed = cell-free assay; value = 100%
target = Homeodomain-interacting protein kinase 1 (HIPK1, Homo sapiens, UniProt Q86Z02); observed = binding; value = 74%
target = Tyrosine-protein kinase SYK (SYK, Homo sapiens, UniProt P43405); observed = cell-free assay; value = 100%
target = Protein-tyrosine kinase 2-beta (PTK2B, Homo sapiens, UniProt Q14289); observed = cell-free assay; value = 100%
target = Cyclin-dependent kinase-like 3 (CDKL3, Homo sapiens, UniProt Q8IVW4); observed = binding; value = 100%
target = Interleukin-1 receptor-associated kinase 4 (IRAK4, Homo sapiens, UniProt Q9NWZ3); observed = binding; value = 94%
target = Serine/threonine-protein kinase SIK3 (SIK3, Homo sapiens, UniProt Q9Y2K2); observed = binding; value = 53%
target = Muscle, skeletal receptor tyrosine-protein kinase (MUSK, Homo sapiens, UniProt O15146); observed = binding; value = 85%
target = Receptor-interacting serine/threonine-protein kinase 4 (RIPK4, Homo sapiens, UniProt P57078); observed = binding; value = 60%
target = Proto-oncogene tyrosine-protein kinase receptor Ret (RET, Homo sapiens, UniProt P07949, V804M); observed = cell-free assay; value = 96%
target = Receptor-type tyrosine-protein kinase FLT3 (FLT3, Homo sapiens, UniProt P36888); observed = binding; value = 67%
target = Glycogen synthase kinase-3 alpha (GSK3A, Homo sapiens, UniProt P49840); observed = cell-free assay; value = 54%

Block 3
Target: Calcium/calmodulin-dependent protein kinase type II subunit alpha (CAMK2A, Homo sapiens, UniProt Q9UQM7)
Chain of UniProt Q9UQM7 (whole entry, looked up): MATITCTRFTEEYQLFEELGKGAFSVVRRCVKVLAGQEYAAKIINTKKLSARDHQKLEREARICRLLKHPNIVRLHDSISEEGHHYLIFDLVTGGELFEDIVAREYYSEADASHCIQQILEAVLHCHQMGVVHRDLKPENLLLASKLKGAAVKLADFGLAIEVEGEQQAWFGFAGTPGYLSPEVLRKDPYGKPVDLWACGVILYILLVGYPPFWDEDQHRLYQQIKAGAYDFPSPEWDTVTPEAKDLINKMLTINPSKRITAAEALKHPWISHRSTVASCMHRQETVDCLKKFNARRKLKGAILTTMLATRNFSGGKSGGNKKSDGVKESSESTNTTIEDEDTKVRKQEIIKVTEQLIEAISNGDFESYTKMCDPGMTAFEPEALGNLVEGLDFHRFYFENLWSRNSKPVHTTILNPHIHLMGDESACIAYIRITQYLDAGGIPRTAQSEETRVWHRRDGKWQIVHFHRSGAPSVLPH
Observed: enzyme activity
Mode: inhibitor
Tested at: 10 µM
Endpoint: inhibition
SMILES = CCCCCCCCCCCCCCCCCCOCC(O)CO (stereo not drawn); value = 18%
SMILES = COc1ccccc1OC(=O)c1ccccc1OC(C)=O; value = -15%
SMILES = COc1ccc(/C=C/c2cc(OC)cc(=O)o2)cc1; value = 2%
SMILES = CCCCCCCCCCCCCCCC=O; value = -6%
SMILES = Cc1ncc(C[n+]2csc(CCOP(=O)(O)O)c2C)c(N)n1; value = 7%
SMILES = CCCCCCCCCCCCOC(=O)CS(=O)(=O)O; value = -5%
SMILES = Cc1c(O)c(C)c2occ(Cc3ccc4c(c3)OCO4)c(=O)c2c1O; value = 23%
SMILES = O=C(O)c1c(Cl)c(Cl)c(Cl)c(Cl)c1-c1c2cc(I)c(=O)c(I)c-2oc2c(I)c(O)c(I)cc12; value = 26%
SMILES = CC1(C)CC[C@]2(C(=O)O)CC[C@]3(C)C(=CC[C@@H]4[C@@]5(C)CC[C@@H](O)C(C)(C)[C@@H]5CC[C@]43C)[C@@H]2C1; value = -13%
SMILES = CN1CCC(=C2c3ccccc3CCn3c(C=O)cnc32)CC1; value = 2%
SMILES = Oc1ccc([C@H]2Oc3cc(O)cc(O)c3C[C@@H]2O)cc1; value = -26%
SMILES = N=C(N)c1ccc(/N=N/Nc2ccc(C(=N)N)cc2)cc1; value = -10%
SMILES = COc1ccc([C@@H]2COc3cc(O[C@@H]4O[C@H](CO)[C@@H](O)[C@H](O)[C@H]4O)ccc3C2)c(O)c1OC; value = 22%
SMILES = CC1(C)O[C@@H]2C[C@H]3[C@@H]4CCC5=CC(=O)C=C[C@]5(C)[C@H]4[C@@H](O)C[C@]3(C)[C@]2(C(=O)CO)O1; value = 12%
SMILES = CN1CCC(=C2c3ccccc3CC(=O)c3sccc32)CC1; value = 2%
SMILES = COc1cc(O)c2c(=O)cc(-c3ccc(O)c(O)c3)oc2c1; value = -44%

Block 4
Target: Diamine acetyltransferase 1 (Homo sapiens, UniProt P21673)
Mode: inhibitor
Tested at: 10 µM
Baseline: control
Endpoint: remaining activity
Residues (P21673 1-171): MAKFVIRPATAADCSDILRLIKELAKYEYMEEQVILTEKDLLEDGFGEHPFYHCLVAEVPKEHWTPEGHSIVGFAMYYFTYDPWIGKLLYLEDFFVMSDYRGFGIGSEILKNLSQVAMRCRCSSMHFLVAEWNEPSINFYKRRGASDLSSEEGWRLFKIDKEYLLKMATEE
Structure (SMILES) = CC1(C)O[C@H]2CC(=O)OC[C@]23[C@H]2CC[C@@]4(C)[C@H](c5ccoc5)OC(=O)[C@H]5O[C@]54[C@]2(C)C(=O)C[C@@H]13; value = 78.9%
Structure (SMILES) = CC(C)=CCc1c(O)ccc(C(=O)[C@@H]2[C@@H](c3c(O)cc(O)c4c(=O)c(CC=C(C)C)c(-c5ccc(O)cc5O)oc34)C=C(C)C[C@H]2c2ccc(O)cc2O)c1O; value = 104%
Structure (SMILES) = CCCCCCCCCC(C)=O; value = 87.4%
Structure (SMILES) = Oc1cc(O)c2c(c1)O[C@H](c1cc(O)c(O)c(O)c1)[C@@H](O)C2; value = 96%
Structure (SMILES) = O=C1CCC(=O)O1; value = 95.1%
Structure (SMILES) = O=C[C@H](O)[C@@H](O)[C@H](O[C@H]1O[C@H](CO)[C@@H](O[C@H]2O[C@H](CO)[C@@H](O[C@H]3O[C@H](CO)[C@@H](O[C@H]4O[C@H](CO)[C@@H](O[C@H]5O[C@H](CO)[C@@H](O)[C@H](O)[C@H]5O)[C@H](O)[C@H]4O)[C@H](O)[C@H]3O)[C@H](O)[C@H]2O)[C@H](O)[C@H]1O)[C@H](O)CO; value = 82.6%
Structure (SMILES) = COC(=O)/C=C/c1ccc(O)c(O)c1; value = 103%
Structure (SMILES) = COc1ccc([C@H]2OC[C@H]3[C@@H]2CO[C@@H]3c2ccc(OC)c(OC)c2)cc1OC; value = 104%
Structure (SMILES) = COc1ccc2[nH]c(=O)oc2c1; value = 102%
Structure (SMILES) = CC1=C(/C=C/C(C)=C/C=C/C(C)=C/C=C/C=C(C)/C=C/C=C(C)/C=C/C2=C(C)CCCC2(C)C)C(C)(C)CCC1; value = 87%
Structure (SMILES) = O=c1cc(-c2ccc(O)cc2)oc2c([C@@H]3O[C@H](CO)[C@@H](O[C@@H]4O[C@H](CO)[C@@H](O)[C@H](O)[C@H]4O)[C@H](O)[C@H]3O)c(O)cc(O)c12; value = 106%
Structure (SMILES) = CC(=O)O[C@H]1[C@H](O[C@H]2CC[C@]34C[C@]35CC[C@]3(C)[C@@H]([C@@]6(C)CC[C@@H](C(C)(C)O)O6)[C@@H](O)C[C@@]3(C)[C@@H]5C[C@H](O[C@@H]3O[C@H](CO)[C@@H](O)[C@H](O)[C@H]3O)[C@H]4C2(C)C)OC[C@@H](OC(C)=O)[C@@H]1O; value = 84.1%
Structure (SMILES) = O=C(O)CCc1ccccc1O; value = 96.6%
Structure (SMILES) = COc1cc(C(=O)O)ccc1O; value = 98.4%

Repeated from above (block 4):
Structure (SMILES) = CC1(C)O[C@H]2CC(=O)OC[C@]23[C@H]2CC[C@@]4(C)[C@H](c5ccoc5)OC(=O)[C@H]5O[C@]54[C@]2(C)C(=O)C[C@@H]13; value = 78.9%
Structure (SMILES) = O=C(O)CCc1ccccc1O; value = 96.6%
Structure (SMILES) = O=c1cc(-c2ccc(O)cc2)oc2c([C@@H]3O[C@H](CO)[C@@H](O[C@@H]4O[C@H](CO)[C@@H](O)[C@H](O)[C@H]4O)[C@H](O)[C@H]3O)c(O)cc(O)c12; value = 106%
Structure (SMILES) = O=C[C@H](O)[C@@H](O)[C@H](O[C@H]1O[C@H](CO)[C@@H](O[C@H]2O[C@H](CO)[C@@H](O[C@H]3O[C@H](CO)[C@@H](O[C@H]4O[C@H](CO)[C@@H](O[C@H]5O[C@H](CO)[C@@H](O)[C@H](O)[C@H]5O)[C@H](O)[C@H]4O)[C@H](O)[C@H]3O)[C@H](O)[C@H]2O)[C@H](O)[C@H]1O)[C@H](O)CO; value = 82.6%
Structure (SMILES) = COc1ccc([C@H]2OC[C@H]3[C@@H]2CO[C@@H]3c2ccc(OC)c(OC)c2)cc1OC; value = 104%
Structure (SMILES) = O=C1CCC(=O)O1; value = 95.1%
